Published values collected from several papers.
Lines come from different studies, so protocols differ. Values joined by “and” are separate records of one study, mostly repeats; a detail may differ. ± marks the error that the study gave.

SMILES | target | test | test system | conditions | scale | endpoint | value
O=C(CN1CN(c2ccccc2)C2(CCN(C(=O)c3cnc4[nH]ncc4c3)CC2)C1=O)NCC(F)(F)F | FLT3-ITD | – | – | concentration not given | – | inhibition | < 50%
C#CCNC(=O)CN(Cc1ccc(-c2ccc(F)c(CN3CCS(=O)(=O)CC3)n2)cc1)C(=O)c1ccc(C2(C(F)(F)F)N=N2)cc1 | glutathione S-transferase Mu 6 | chemical proteomics | CHO cells overexpressing CB2 | 10 µM | relative to: untreated | photoaffinity enrichment | > 13 fold
CC[C@@H]1CN2CCc3c([nH]c4cccc(OC)c34)[C@@H]2C[C@@H]1/C(=C\OC)C(=O)OC | rabbit anti-mitragynine polyclonal IgG | antigen binding, competitor, competitive indirect ELISA | 10% methanol | 90 min both antibody incubations | – | IC50 | 0.8 µg/mL and 0.93 µg/mL
CC(C)C[C@H](NC(=O)[C@H](CC(=O)O)NC(=O)[C@@H](NC(=O)[C@H](CCC(=O)O)NC(=O)[C@H](CCCCN)NC(=O)[C@H](Cc1ccc(O)cc1)NC(=O)[C@H](CCCCN)NC(=O)[C@H](Cc1c[nH]cn1)NC(=O)CNC(=O)CN)[C@@H](C)O)C(N)=O | HCV IRES RNA | MALDI-TOF mass spectrometry, refers to: 5'-hydroxyl products | hepatitis C virus | – | – | initial cleavage rate | 1.1 ± 0.1 %/min
Nc1ncc(-c2cc(-c3cnn(CC(F)(F)F)c3)ncc2F)nc1C(=O)NC1CNCC(F)C1 (centres unmarked) | ABL1(H396P)-phosphorylated | KINOMEscan competition binding | – | 1 µM | relative to: DMSO control | remaining binding | 62%
Cc1ccc2c(n1)c(-c1cccc(S(C)(=O)=O)c1)c(C)n2C/C(F)=C/CN | GABAA receptor (rat) | binding, radioligand binding | rat tissue | 10 µM, Chloride | – | inhibition | 6%
COc1ccccc1-c1n[nH]c2nc(N[C@H]3CC[C@H](NS(=O)(=O)CC(C)C)CC3)ncc12 | Leishmania donovani histone H1-like (LINJ.27.1511) | bead binding competition | Leishmania donovani extract | 10 µM | relative to: vehicle | relative abundance | 0.36
CNC(=O)C[C@H](Cc1ccc(F)cc1)NC(=O)[C@@H](Cc1ccc(Cl)cc1Cl)NC(=O)[C@H](N)Cc1ccccc1C#N | human protease panel | enzyme activity, inhibitor | – | off-target | – | IC50 | > 10 µM

For quick reference, copied from above:
SMILES | target | test | test system | conditions | scale | endpoint | value
COc1ccccc1-c1n[nH]c2nc(N[C@H]3CC[C@H](NS(=O)(=O)CC(C)C)CC3)ncc12 | Leishmania donovani histone H1-like (LINJ.27.1511) | bead binding competition | Leishmania donovani extract | 10 µM | relative to: vehicle | relative abundance | 0.36
